Published values pooled from the literature.
Each line is one published result; not all experiments were run side by side. Several values in a cell are separate wells, animals, samples, runs or records. ± marks the error that the study gave.
Tumor necrosis factor receptor superfamily member 1A extracellular domain: Tumor necrosis factor receptor superfamily member 1A, extracellular domain (Homo sapiens, UniProt P19438)
Sequence of UniProt P19438 (whole entry, looked up): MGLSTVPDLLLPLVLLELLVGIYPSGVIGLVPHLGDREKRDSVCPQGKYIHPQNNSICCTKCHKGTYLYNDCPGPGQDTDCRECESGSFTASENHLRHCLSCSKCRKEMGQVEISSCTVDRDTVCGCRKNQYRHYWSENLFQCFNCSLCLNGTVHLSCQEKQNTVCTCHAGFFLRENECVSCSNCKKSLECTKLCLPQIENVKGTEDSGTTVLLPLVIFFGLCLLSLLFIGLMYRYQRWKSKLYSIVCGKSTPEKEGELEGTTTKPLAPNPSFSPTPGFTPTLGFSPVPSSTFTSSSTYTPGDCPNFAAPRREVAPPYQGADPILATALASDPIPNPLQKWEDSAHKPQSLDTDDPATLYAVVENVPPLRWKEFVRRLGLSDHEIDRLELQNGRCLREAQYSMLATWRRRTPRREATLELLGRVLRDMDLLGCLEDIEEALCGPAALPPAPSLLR
USP5 ZnF-UBD domain: Ubiquitin carboxyl-terminal hydrolase 5, ZnF-UBD domain (USP5, Homo sapiens, UniProt P45974)
Sequence of UniProt P45974 (whole entry, looked up): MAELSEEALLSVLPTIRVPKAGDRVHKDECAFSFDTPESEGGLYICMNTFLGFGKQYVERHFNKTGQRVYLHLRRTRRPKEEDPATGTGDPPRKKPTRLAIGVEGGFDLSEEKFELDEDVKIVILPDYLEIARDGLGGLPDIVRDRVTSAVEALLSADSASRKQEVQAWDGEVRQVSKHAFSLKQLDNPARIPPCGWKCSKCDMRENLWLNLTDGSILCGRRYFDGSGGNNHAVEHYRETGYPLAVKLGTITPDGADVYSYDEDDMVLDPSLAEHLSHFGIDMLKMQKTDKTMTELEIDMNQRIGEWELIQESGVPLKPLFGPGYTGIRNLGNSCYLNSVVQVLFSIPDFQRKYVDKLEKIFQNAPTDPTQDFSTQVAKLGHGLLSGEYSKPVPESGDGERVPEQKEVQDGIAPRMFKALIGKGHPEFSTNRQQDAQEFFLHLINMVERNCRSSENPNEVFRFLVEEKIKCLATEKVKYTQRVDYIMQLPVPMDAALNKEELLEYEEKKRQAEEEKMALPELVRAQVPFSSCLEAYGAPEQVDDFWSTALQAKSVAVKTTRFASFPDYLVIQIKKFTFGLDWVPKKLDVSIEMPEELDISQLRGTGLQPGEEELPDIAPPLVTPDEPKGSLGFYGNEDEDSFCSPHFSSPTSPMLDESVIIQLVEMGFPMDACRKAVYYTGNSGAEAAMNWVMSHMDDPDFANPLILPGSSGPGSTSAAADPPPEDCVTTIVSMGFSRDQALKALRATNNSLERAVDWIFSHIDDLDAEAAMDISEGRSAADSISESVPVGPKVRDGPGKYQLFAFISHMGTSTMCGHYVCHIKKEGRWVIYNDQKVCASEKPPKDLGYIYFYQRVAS
HDAC5: Histone deacetylase 5 (HDAC5, Homo sapiens, UniProt Q9UQL6)
Sequence of UniProt Q9UQL6 (whole entry, looked up): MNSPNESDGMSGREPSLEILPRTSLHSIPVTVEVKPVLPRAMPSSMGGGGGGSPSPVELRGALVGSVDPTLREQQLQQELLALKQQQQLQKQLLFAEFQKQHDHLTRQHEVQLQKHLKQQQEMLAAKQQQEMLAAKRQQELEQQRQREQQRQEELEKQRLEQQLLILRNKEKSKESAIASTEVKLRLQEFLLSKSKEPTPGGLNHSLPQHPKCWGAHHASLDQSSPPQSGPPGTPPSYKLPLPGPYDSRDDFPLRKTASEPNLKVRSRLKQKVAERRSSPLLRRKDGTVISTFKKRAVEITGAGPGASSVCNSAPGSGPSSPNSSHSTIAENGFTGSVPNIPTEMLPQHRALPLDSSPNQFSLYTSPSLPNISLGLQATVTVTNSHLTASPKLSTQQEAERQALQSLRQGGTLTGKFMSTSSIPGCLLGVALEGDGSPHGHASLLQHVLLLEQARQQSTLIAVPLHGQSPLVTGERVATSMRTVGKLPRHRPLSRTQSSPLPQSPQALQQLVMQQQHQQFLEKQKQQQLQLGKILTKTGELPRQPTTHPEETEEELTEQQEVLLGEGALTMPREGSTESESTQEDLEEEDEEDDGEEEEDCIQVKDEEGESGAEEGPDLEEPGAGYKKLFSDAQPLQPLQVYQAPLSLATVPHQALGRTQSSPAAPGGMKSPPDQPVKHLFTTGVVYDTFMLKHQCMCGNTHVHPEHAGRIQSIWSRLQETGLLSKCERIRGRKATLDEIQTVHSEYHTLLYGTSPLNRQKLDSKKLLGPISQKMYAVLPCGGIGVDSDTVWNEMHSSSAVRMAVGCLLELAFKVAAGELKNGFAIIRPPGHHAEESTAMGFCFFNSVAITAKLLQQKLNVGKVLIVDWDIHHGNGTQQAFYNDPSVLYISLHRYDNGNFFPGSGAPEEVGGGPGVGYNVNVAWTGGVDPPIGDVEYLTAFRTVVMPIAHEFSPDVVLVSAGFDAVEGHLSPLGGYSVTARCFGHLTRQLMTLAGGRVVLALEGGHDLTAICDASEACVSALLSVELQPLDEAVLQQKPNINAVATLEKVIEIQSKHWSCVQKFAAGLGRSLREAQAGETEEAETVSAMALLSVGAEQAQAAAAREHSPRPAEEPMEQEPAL
GATD3: Glutamine amidotransferase-like class 1 domain-containing protein 3, mitochondrial (GATD3, Homo sapiens, UniProt P0DPI2)
Sequence of UniProt P0DPI2 (whole entry, looked up): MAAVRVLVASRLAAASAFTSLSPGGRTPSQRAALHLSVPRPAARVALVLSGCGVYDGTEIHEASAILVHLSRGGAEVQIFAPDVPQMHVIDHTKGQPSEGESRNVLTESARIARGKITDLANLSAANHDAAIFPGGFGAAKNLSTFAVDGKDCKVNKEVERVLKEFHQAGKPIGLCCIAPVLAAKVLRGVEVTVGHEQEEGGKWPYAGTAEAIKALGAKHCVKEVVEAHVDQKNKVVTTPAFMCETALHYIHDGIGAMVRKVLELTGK
Sequence of UniProt P45983 (whole entry, looked up): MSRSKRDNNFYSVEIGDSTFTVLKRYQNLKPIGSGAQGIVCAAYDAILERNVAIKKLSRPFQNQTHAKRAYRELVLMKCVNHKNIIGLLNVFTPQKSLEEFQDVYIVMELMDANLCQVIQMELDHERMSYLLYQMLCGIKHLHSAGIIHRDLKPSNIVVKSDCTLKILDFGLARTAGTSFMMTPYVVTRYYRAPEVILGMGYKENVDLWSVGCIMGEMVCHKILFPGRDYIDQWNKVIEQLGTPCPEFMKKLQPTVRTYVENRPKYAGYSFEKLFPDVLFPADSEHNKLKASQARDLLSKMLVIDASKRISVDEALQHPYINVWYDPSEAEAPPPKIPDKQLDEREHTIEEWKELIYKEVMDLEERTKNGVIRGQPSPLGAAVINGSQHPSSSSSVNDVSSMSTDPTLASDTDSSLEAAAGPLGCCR
Sequence of UniProt Q9EQY0 (whole entry, unmodified, looked up): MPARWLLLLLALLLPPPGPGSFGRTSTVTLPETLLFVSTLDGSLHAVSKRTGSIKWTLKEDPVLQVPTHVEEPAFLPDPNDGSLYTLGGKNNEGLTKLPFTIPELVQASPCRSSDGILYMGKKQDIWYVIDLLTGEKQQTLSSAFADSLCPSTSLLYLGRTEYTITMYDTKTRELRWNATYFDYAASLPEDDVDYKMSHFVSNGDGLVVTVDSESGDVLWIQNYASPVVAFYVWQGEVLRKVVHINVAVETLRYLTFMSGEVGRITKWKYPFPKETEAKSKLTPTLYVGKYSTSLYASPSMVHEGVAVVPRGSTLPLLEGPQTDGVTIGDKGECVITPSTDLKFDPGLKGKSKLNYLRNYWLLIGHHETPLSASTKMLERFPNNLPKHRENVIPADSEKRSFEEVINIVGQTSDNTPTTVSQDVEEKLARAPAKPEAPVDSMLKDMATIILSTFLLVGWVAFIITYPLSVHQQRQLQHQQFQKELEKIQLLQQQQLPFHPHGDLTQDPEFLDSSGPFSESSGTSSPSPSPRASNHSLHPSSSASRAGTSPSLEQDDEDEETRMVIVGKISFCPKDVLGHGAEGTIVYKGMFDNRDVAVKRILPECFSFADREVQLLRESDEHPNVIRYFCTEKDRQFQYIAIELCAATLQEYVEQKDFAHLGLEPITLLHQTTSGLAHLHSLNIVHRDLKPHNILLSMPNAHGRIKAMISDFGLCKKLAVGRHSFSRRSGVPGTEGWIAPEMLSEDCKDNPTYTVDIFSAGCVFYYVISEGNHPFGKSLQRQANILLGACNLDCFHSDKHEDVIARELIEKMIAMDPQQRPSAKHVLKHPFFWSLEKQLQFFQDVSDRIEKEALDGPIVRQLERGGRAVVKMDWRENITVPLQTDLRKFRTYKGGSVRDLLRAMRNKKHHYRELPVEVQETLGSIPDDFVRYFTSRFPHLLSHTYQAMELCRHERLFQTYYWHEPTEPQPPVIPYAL
Sequence of UniProt P53779 (whole entry, looked up): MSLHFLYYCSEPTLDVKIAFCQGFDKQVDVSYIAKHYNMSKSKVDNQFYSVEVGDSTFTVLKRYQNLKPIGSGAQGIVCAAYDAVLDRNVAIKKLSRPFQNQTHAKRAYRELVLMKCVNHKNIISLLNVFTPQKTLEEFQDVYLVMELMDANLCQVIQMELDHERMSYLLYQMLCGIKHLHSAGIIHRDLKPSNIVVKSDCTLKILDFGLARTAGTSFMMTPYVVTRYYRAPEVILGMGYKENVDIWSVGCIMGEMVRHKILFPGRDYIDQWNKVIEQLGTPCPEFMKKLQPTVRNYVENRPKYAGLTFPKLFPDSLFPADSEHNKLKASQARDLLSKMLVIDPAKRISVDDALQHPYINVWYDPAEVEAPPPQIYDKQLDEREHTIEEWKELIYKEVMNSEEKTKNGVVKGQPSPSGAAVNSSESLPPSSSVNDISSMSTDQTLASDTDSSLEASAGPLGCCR
Sequence of UniProt P40337 (whole entry, looked up): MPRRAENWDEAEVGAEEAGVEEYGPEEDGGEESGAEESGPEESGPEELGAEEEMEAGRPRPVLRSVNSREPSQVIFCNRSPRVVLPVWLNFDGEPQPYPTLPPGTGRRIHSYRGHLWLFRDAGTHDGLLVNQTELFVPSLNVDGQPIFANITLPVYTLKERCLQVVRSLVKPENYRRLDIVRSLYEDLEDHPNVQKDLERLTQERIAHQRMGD
Sequence of UniProt Q9KCC6 (whole entry, looked up): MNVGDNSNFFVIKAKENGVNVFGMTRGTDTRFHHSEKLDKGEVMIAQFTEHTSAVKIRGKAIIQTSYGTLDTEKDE

| Compound | target | assay | system | setting | how to read | Kd |
| --- | --- | --- | --- | --- | --- | --- |
| O=C(O)c1cc(-c2ccc(F)cc2)ccn1 | Tumor necrosis factor receptor superfamily member 1A extracellular domain | binding, SPR OneStep injection |  | fragment screen |  | ≤ 1500 µM |
| COCCOCCc1c(C)c2cc(OC)c(O)c(C=O)c2oc1=O | Serine/threonine-protein kinase/endoribonuclease IRE1 (Mus musculus, UniProt Q9EQY0, N772Y) | microscale thermophoresis |  |  |  | 0.87 µM and 0.81 µM |
| O=C(O)CCc1cnn(-c2ccccc2)c1 | USP5 ZnF-UBD domain |  |  |  |  | > 1000 µM |
| O=c1cc(-c2ccc([N+](=O)[O-])cc2)[nH]c2c(-c3ccc(Cl)cc3)c(Cc3ccccc3)nn12 | Sodium channel protein type 8 subunit alpha, C-terminal domain (SCN8A, Homo sapiens, UniProt Q9UQD0) | SPR | PBS with 0.005% Tween-20 and 2% DMSO | 25 °C, immobilised C-terminal domain |  | 4.07 ± 0.28 µM |
| C/C=C1\NC(=O)[C@H]2CSSCC/C=C/[C@H](CC(=O)N[C@H](C(C)C)C(=O)N2)OC(=O)[C@H](C(C)C)NC1=O | HDAC5 | inhibitor, competition pulldown | SW620 and MV4-11 lysate | 1 h |  | 0.597 µM |
| O=C(O)c1cc(-c2cccc(F)c2)ccn1 | Tumor necrosis factor receptor superfamily member 1A extracellular domain | SPR OneStep |  | immobilized target |  | 710 ± 40 µM |
| O=C(O)CN1Cc2ccccc2C1=O | USP5 ZnF-UBD domain |  |  |  |  | > 1000 µM |
| Nc1nc(-c2ccc(Cl)c(S(N)(=O)=O)c2)cs1 | Carbonic anhydrase 9 (CA9, Homo sapiens, UniProt Q16790) | binding |  | pH 7 |  | 0.13 µM |
| O=C(CCCCCCNC(=O)c1cnc(N(c2ccccc2)c2ccccc2Cl)nc1)NO | GATD3 | inhibitor, competition pulldown | SW620 and MV4-11 lysate | 1 h |  | 1.83 µM |
| Cc1cc(NC(=O)CCC(=O)O)nn1C | USP5 ZnF-UBD domain |  |  |  |  | > 1000 µM |
| Cc1cc2nc3c(=O)[nH]c(=O)nc-3n(C[C@H](O)[C@H](O)[C@H](O)COP(=O)(O)OP(=O)(O)OC[C@H]3O[C@@H](n4cnc5c(N)ncnc54)[C@H](O)[C@@H]3O)c2cc1C | Single-stranded DNA-binding protein 3 (SSBP3, Homo sapiens, UniProt Q9BWW4) | binding, MS pulldown competition | SW-620 cell lysate |  |  | 0.008 µM |
| CC(=O)c1cnc2ccc(-c3cc(Cl)c(O)c(Cl)c3)nc2c1N[C@H]1CC[C@H](CN(C)C)CC1 | Probable receptor-like protein kinase At5g59700 (Arabidopsis thaliana, UniProt Q9FN92) | binding, SPR |  |  |  | 19.4 µM |
| O=[N+]([O-])c1cc(C(F)(F)F)ccc1NCc1ccsc1 | Endothelial PAS domain-containing protein 1, PAS-B domain (EPAS1, Homo sapiens, UniProt Q99814, N288A) | ITC, reverse mode |  | 25 °C |  | 0.5 ± 0.04 µM |
| O=C(O)Cc1nc2ccccc2[nH]1 | USP5 ZnF-UBD domain |  |  |  |  | > 1000 µM |
| N[C@@H](Cc1c[nH]c2ccccc12)C(=O)O | Transcription attenuation protein MtrB (mtrB, Halalkalibacterium halodurans, UniProt Q9KCC6) | binding, native mass spectrometry | Bacillus halodurans |  |  | 0.25 µM |
| O=C(O)c1cc(-c2ccc(CO)cc2F)ccn1 | Tumor necrosis factor receptor superfamily member 1A extracellular domain | SPR OneStep |  | immobilized target |  | 1310 ± 40 µM |
| C#Cc1cccc(Nc2ncnc3cc(OC)c(OCCCCCCC(=O)NO)cc23)c1 | GATD3 | inhibitor, competition pulldown | SW620 and MV4-11 lysate | 1 h |  | > 30.2 µM |
| O=C(O)CCc1ccno1 | USP5 ZnF-UBD domain |  |  |  |  | > 1000 µM |
| CO[C@H]1O[C@H](COS(=O)(=O)O)[C@@H](O[C@@H]2O[C@@H](C(=O)O)[C@@H](O[C@H]3O[C@H](COS(=O)(=O)O)[C@@H](O[C@@H]4O[C@H](C(=O)O)[C@@H](O[C@H]5O[C@H](COS(=O)(=O)O)[C@@H](O)[C@H](O)[C@H]5NS(=O)(=O)O)[C@H](O)[C@H]4O)[C@H](OS(=O)(=O)O)[C@H]3NS(=O)(=O)O)[C@H](O)[C@H]2OS(=O)(=O)O)[C@H](O)[C@H]1NS(=O)(=O)O | Beta-2-glycoprotein 1, domain V (APOH, Homo sapiens, UniProt P02749, V266L) | isothermal titration calorimetry | 25 mM cacodylate buffer | pH 7.2, 298 K, added: 100 mM NaCl |  | 14.7 µM |
| OB(O)CSc1nc2ccccc2n1Cc1ccc(C(F)(F)F)cc1C(F)(F)F | Regulatory protein BlaR1, sensor domain (blaR1, Staphylococcus aureus, UniProt P18357) | binding, tryptophan fluorescence quenching |  | 1 h |  | 10.2 µM |
| O=C(O)Cc1cccc2cccnc12 | USP5 ZnF-UBD domain |  |  |  |  | > 1000 µM |
| NCCc1c[nH]c2ccc(O)cc12 | 5-hydroxytryptamine receptor 1E (5HT1E, Cavia porcellus, UniProt Q6VB83) | binding, radioligand, saturation binding | hippocampal membranes | pH 7.4, 37 °C, added: ritanserin 30 nM, 5-CT masking |  | 0.00572 ± 0.00073 µM |

| Compound | target | assay | system | setting | how to read | Kd |
| --- | --- | --- | --- | --- | --- | --- |
| O=C(CCCCCCC(=O)Nc1ccc([C@H]2O[C@@H](CSc3nc(-c4ccccc4)c(-c4ccccc4)o3)C[C@@H](c3ccc(CO)cc3)O2)cc1)NO | GATD3 | inhibitor, competition pulldown | SW620 and MV4-11 lysate | 1 h |  | > 30.2 µM |
| O=C(Nc1nnc(-c2ccncc2)s1)C(F)(F)Cl | Mitogen-activated protein kinase 10 (MAPK10, Homo sapiens, UniProt P53779) |  |  | pH 7.4 |  | 18.4 µM and 28.8 µM |
| C[C@@H](N[C@@H](CCCN=C(N)N)C(=O)O)C(=O)O | uncharacterized protein (Pelagibacter ubique, UniProt Q4FLC2) | isothermal titration calorimetry | Candidatus Pelagibacter ubique |  |  | 0.268 µM and 0.196 µM |
| Nc1ccccc1NC(=O)c1ccc(CNc2nccc(-c3cccnc3)n2)cc1 | HDAC5 | inhibitor, competition pulldown | SW620 and MV4-11 lysate | 1 h |  | > 30.2 µM |
| CC(=O)C(=O)[C@@H](O)CO | RapC |  |  |  |  | 566 µM |
| NC(=O)C[C@H](N)C(=O)O | Methyl-accepting chemotaxis protein, ligand-binding domain (Pectobacterium atrosepticum, UniProt Q6D6I9) | isothermal titration calorimetry |  | pH 6.0, 25 °C, ligand-binding domain |  | 65 ± 5 µM |
| Cn1ccc2cc(-c3ccnc(C(=O)O)c3)ccc21 | Tumor necrosis factor receptor superfamily member 1A extracellular domain | SPR OneStep |  | immobilized target |  | 597 ± 152 µM |
| O=C(O)CCC1=Nc2cccc3cccc(c23)N1 | USP5 ZnF-UBD domain |  |  |  |  | > 1000 µM |
| O=C(O)c1cc(-c2cccc(O)c2)ccn1 | Tumor necrosis factor receptor superfamily member 1A extracellular domain | SPR OneStep |  | immobilized target |  | 721 ± 9 µM |
| Nc1ncnc2c1ncn2[C@@H]1O[C@H](COP(=O)(O)OP(=O)(O)O)[C@@H](O)[C@H]1O | Creatine kinase U-type, mitochondrial (CKMT1A, Homo sapiens, UniProt P12532, D359N) | microscale thermophoresis |  | pH 7.0, D321N mutant, no substrate |  | 30 ± 5 µM |
| O=C(O)c1cc(-c2ccc(F)cc2)cc(CO)n1 | Tumor necrosis factor receptor superfamily member 1A extracellular domain | binding, SPR OneStep |  |  |  | 1090 ± 140 µM |
| CC(=O)N[C@H](C(=O)N1C[C@H](O)C[C@H]1C(=O)NCc1ccc(-c2scnc2C)cc1)C(C)(C)SCCCCCCNC(=O)C[C@@H]1N=C(c2ccc(Cl)cc2)c2c(sc(C)c2C)-n2c(C)nnc21 | VHL/BRD3, BD1; with Elongin B/C (Homo sapiens, UniProt P40337+Q15059) | ITC |  | 25 °C, PROTAC:Brd3^BD1, ternary |  | 0.207 ± 0.002 µM |
| CCCC(CCC)C(=O)O | HDAC5 | inhibitor, competition pulldown | SW620 and MV4-11 lysate | 1 h |  | > 3020 µM |
| O=C(O)CNC(=O)c1ccc(C(=O)N2CCC(c3ccc(Cl)cc3)CC2)cn1 | USP5 ZnF-UBD domain |  |  |  |  | 71.1 µM |
| O=C(/C=C/c1cccc(S(=O)(=O)Nc2ccccc2)c1)NO | GATD3 | inhibitor, competition pulldown | SW620 and MV4-11 lysate | 1 h |  | > 30.2 µM |
| CC(=O)N[C@H]1[C@@H](OC(C)C(N)C(=O)O)O[C@H](CO[C@]2(C(=O)O)C[C@H](O)[C@@H](NC(C)=O)[C@H]([C@H](O)[C@H](O)CO)O2)[C@H](O)[C@@H]1O (stereo partly shown) | CLEC10A, carbohydrate recognition domain (Homo sapiens, UniProt Q8IUN9) | isothermal titration calorimetry |  | 293 K | lower = stronger binding | 25 µM |
| Nc1nnc(-c2ccncc2)s1 | Mitogen-activated protein kinase 8 (MAPK8, Homo sapiens, UniProt P45983) |  |  |  |  | 142 µM and 182 µM |
| CS(=O)(=O)NC(=O)c1cc(-c2ccc(N)cc2)ccn1 | Tumor necrosis factor receptor superfamily member 1A extracellular domain | binding, SPR OneStep |  |  |  | 984 ± 117 µM |
| Nc1ccccc1NC(=O)c1ccc(CNC(=O)OCc2cccnc2)cc1 | GATD3 | inhibitor, competition pulldown | SW620 and MV4-11 lysate | 1 h |  | > 30.2 µM |
| O=C(O)c1cc(-c2ccccc2O)ccn1 | Tumor necrosis factor receptor superfamily member 1A extracellular domain | SPR OneStep |  | immobilized target |  | 760 ± 10 µM |
| C=CC(=O)N1CCN(c2nc(OC[C@@H]3CCCN3C)nc3c(F)c(-c4nc(N)cc(C)c4C(F)(F)F)c(Cl)cc23)[C@@H](C)C1 | GTPase KRas, GDP-bound (KRAS, Homo sapiens, UniProt P01116) |  |  |  |  | 0.65 ± 0.042 µM |
